Measurements collected from several papers.
Each line is one published result; not all experiments were run side by side. Several values in a cell are separate wells, animals, samples, runs or records. Numbers after ± are the reported error.

The amount transported of `O=c1c(-c2ccc(O)cc2)coc2c([C@@H]3O[C@H](CO)[C@@H](O)[C@H](O)[C@H]3O)c(O)ccc12` is reported as 36.2 ± 2.5% (Caco-2 monolayers; apical to basolateral transport; 100 µg/mL, 2 h).
With `CCCCCCCCCC(=O)N[C@@H](Cc1c[nH]c2ccccc12)C(=O)N[C@H](CC(N)=O)C(=O)N[C@@H](CC(=O)O)C(=O)N[C@@H]1C(=O)NCC(=O)N[C@@H](CCCN)C(=O)N[C@@H](CC(=O)O)C(=O)N[C@H](C)C(=O)N[C@@H](CC(=O)O)C(=O)NCC(=O)N[C@H](CO)C(=O)N[C@@H]([C@H](C)CC(=O)O)C(=O)N[C@@H](CC(=O)c2ccccc2N)C(=O)O[C@@H]1C` the EC50 was 64 µM (L929; cytotoxicity, WST-1; mouse cells; 5 days, 5% FBS DMEM).
`O=C(C[C@@H](C(F)F)n1ccc(F)n1)N1CCC(O)(Cn2cnc3c(cnn3-c3ccc(F)cc3)c2=O)CC1` has a viability of 95.7% and 88.3% (CAPAN-1 parental; SRB; 0.009145 µM, 5 days).
`CC[C@]1(O)C[C@H]2CN(CCc3c([nH]c4ccccc34)[C@@](C(=O)OC)(c3cc4c(cc3OC)N(C=O)[C@H]3[C@@](O)(C(=O)OC)[C@H](OC(C)=O)[C@]5(CC)C=CCN6CC[C@]43[C@@H]65)C2)C1` has a neurite degeneration of 78.8% and 85.1% and 82.5% and 79.9% and 84.2% (rat DRG neurons (Sprague Dawley); 40 nM, 48 h).
Under “aberrant cells with gaps”, `Cc1noc(C)c1Cn1cc(N2C(=O)CN(Cc3cccc(O)c3)C2=O)cn1` is recorded as 2.5% (human blood lymphocytes; 200 µg/mL, 21 h).
`C[C@H](CCC(=O)N[C@@H](Cc1ccc(O)cc1)C(=O)O)[C@H]1CC[C@H]2[C@@H]3[C@H](O)C[C@@H]4C[C@H](O)CC[C@]4(C)[C@H]3CC[C@]12C` has a recovery of 135% (HEK293T; LC-MS; serum-free conditioned medium; 100 µM, overnight; relative to: non-conditioned medium).
For `COc1ccc(C(=O)CSc2[nH]c(=O)cc(C(F)(F)F)c2C#N)cc1`, the CC50 was 56.8 µM (MRC-5 SV2 lung fibroblasts; cytotoxicity, resazurin; 3 days, 5% heat-inactivated FCS).
For `COc1cc(C2Oc3cc([C@H]4Oc5cc(O)cc(O)c5C(=O)[C@@H]4O)ccc3OC2CO)ccc1O` (some centres unmarked), the efflux ratio was 0.9 ± 0.08 (Caco-2 monolayers; 100 µg/mL, 2 h; relative to: Papp(BL-AP) over Papp(AP-BL)).
`Cc1cc(Nc2ncnc3ccc(NC4=NC(C)(C)CO4)cc23)ccc1Oc1ccn2ncnc2c1` has an efflux ratio of 2.5 ± 0.52 (MDCK-II cells, parental; bidirectional transwell permeability; 1 µM, 1 h, pH 7.4).
`Nc1ccn([C@H]2CC[C@@H](CO)O2)c(=O)n1` has a CC50 of over 10 µM (PBMC).
`COc1cccc(-c2n[nH]c(SCc3ccccn3)n2)c1OC`: “structural aberrations per 100 cells” 1 (primary human lymphocytes; 0.063 mg/mL, 20 h).
The amount transported of `C[C@@H]1O[C@@H](OC[C@H]2O[C@@H](Oc3c(-c4ccc(OCCO)c(OCCO)c4)oc4cc(OCCO)cc(O)c4c3=O)[C@H](O)[C@@H](O)[C@@H]2O)[C@H](O)[C@H](O)[C@H]1O` is reported as 4.87 ± 0.7% (Caco-2 monolayers; apical to basolateral transport; 100 µg/mL, 2 h).
Under “time to onset of cytotoxicity”, `C[C@H]1[C@@H](O)O[C@@H]2O[C@@]3(C)CC[C@H]4[C@H](C)CC[C@@H]1[C@@]24OO3` is recorded as 48 h (ML-2 cells; CellTox Green; concentration not given).
For `COc1ccc([C@@H]2CC(=O)c3c(O)cc(O)cc3O2)cc1O`, the amount transported was 3.21 ± 0.3% (Caco-2 monolayers; apical to basolateral transport; 100 µg/mL, 2 h).
For `FC(F)(F)c1cc(CO[C@H]2CCCN[C@H]2c2ccccc2)cc(C(F)(F)F)c1`, the CC50 was over 25 µM (PBMC).
With `Cc1cc(C)c(CNC(=O)c2cc(Cl)c3c(c2C)O[C@@](C)([C@H]2CC[C@H](N(C)C)CC2)O3)c(=O)[nH]1` the efflux ratio was 1.18 (Caco-2; 3 µM, with: verapamil 100 µM).
`O=C(CS)NCCCCCC(=O)Nc1cccc2cccnc12` has a recovery of over 90% (Caco-2 monolayers; apical and basolateral sides; time not given; relative to: amount applied).
For `O=C(O)c1ccc(CN2C[C@@H]3C[C@H]2CN3Cc2ccc(Oc3ccc(-c4ncco4)cc3)cc2)cc1`, “slope of fold mRNA vs concentration” read -0.00222 (cryopreserved human hepatocytes, donor LLT; CYP3A4 induction, measured: CYP3A4 mRNA; concentration not given, 48 h).
The CC50 of `C[C@@H](OC(C)(C)C)[C@H](NC(=O)OCc1ccccc1)C(=O)N[C@@H](CC1CCCCC1)C(=O)NN(CCC(N)=O)C(=O)C(Cl)Cl` is reported as 59.5 µM (HEK293T).
`CC[C@H](C)[C@H](NC(=O)[C@H](CCCCN)NC(=O)[C@H](CCC(N)=O)NC(=O)[C@@H](NC(=O)[C@@H](NC(=O)[C@H](CCCNC(=N)N)NC(=O)[C@H](CCCCN)NC(=O)[C@H](Cc1ccccc1)NC(=O)CN)[C@@H](C)CC)C(C)C)C(=O)N[C@@H](CCCNC(=N)N)C(=O)N[C@@H](CC(=O)O)C(=O)N[C@@H](Cc1ccccc1)C(=O)N[C@@H](CC(C)C)C(=O)N[C@@H](CCCNC(=N)N)C(=O)N[C@@H](CC(N)=O)C(=O)N[C@@H](CC(C)C)C(=O)N[C@H](C(N)=O)C(C)C` has an HC50 of under 35 µM (human erythrocytes; hemolysis; 1 h, 37 °C; relative to: Triton X-100).
Under cell proliferation, `CCCS(=O)(=O)Nc1ccc(F)c(C(=O)c2c[nH]c3ncc(Cl)cc23)c1F` is recorded as “no inhibition” (C2C12; 100 µM).
`Cc1nn(-c2nc3c(F)cc(F)cc3s2)c(O)c1C(c1ccc(C(F)(F)F)cc1)c1c(C)nn(-c2nc3c(F)cc(F)cc3s2)c1O` has a CC50 of 52.4 µM and 58.9 µM (RAW-ISG; cell viability; 24 h).
`C[C@@H]1O[C@@H](O[C@H]2[C@H](Oc3cc(O)c4c(c3)O[C@H](c3ccc(O)cc3)CC4=O)O[C@H](CO)[C@@H](O)[C@@H]2O)[C@H](O)[C@H](O)[C@H]1O` has an amount transported of 16.6 ± 0.9% (Caco-2 monolayers; apical to basolateral transport; 100 µg/mL, 2 h).
`CCOc1cc2ncc(C#N)c(Nc3ccc(OCc4ccccn4)c(Cl)c3)c2cc1NC(=O)/C=C/CN(C)C` has an efflux ratio of 1.12 ± 1.15 (MDCK-II cells, parental; bidirectional transwell permeability; 1 µM, 1 h, pH 7.4).
`O=C(O)[C@H]1O[C@@H](Oc2cc3oc(-c4ccccc4)cc(=O)c3c(O)c2O)[C@H](O)[C@@H](O)[C@@H]1O` has an amount transported of 2.56% (Caco-2 monolayers; basolateral to apical transport; 100 µg/mL, 2 h).
For `CCOC(=O)CCCCCCC/C=C\CCCCCCC(C)O[C@@H]1O[C@H](COC(C)=O)[C@@H](O)[C@H](O)[C@H]1O[C@@H]1O[C@H](COC(C)=O)[C@@H](O)[C@H](O)[C@H]1O` (some centres unmarked), the HC50 was about 125 µg/mL (sheep red blood cells; 1 h, 37 °C, 5% DMSO).
With `C[C@H](CCC(=O)N[C@@H](Cc1ccccc1)C(=O)O)[C@H]1CC[C@H]2[C@@H]3[C@H](O)C[C@@H]4C[C@H](O)CC[C@]4(C)[C@H]3C[C@H](O)[C@]12C` the recovery was 98% (HEK293T; LC-MS; serum-free conditioned medium; 100 µM, overnight; relative to: non-conditioned medium).
For `Cc1ccc(S(=O)(=O)Oc2ccc(NC(=O)c3cnccn3)cc2)cc1`, the viability was over 80% (HEK-293T; MTT; 100 µM, 24 h; relative to: untreated).
`CC[C@H](C)[C@H](NC(=O)[C@H](CCCNC(=N)N)NC(=O)[C@H](CCC(N)=O)NC(=O)[C@@H](NC(=O)[C@@H](NC(=O)[C@H](CCCNC(=N)N)NC(=O)[C@H](CCCCN)NC(=O)[C@H](Cc1ccccc1)NC(=O)CN)[C@@H](C)CC)C(C)C)C(=O)N[C@@H](CCCCN)C(=O)N[C@@H](CC(=O)O)C(=O)N[C@@H](Cc1ccccc1)C(=O)N[C@@H](CC(C)C)C(=O)N[C@@H](CCCNC(=N)N)C(=O)N[C@@H](CC(N)=O)C(=O)N[C@@H](CC(C)C)C(=O)N[C@H](C(N)=O)C(C)C` gave an HC50 of 160 µM (human erythrocytes; hemolysis; 1 h, 37 °C; relative to: Triton X-100).
The amount transported of `O=C(CCc1ccc(O)cc1)c1c(O)cc(O)cc1O` is reported as 9.7 ± 1.2% (Caco-2 monolayers; basolateral to apical transport; 100 µg/mL, 2 h).
With `C[C@H](CCC(=O)N[C@@H](Cc1ccccc1)C(=O)O)[C@H]1CC[C@H]2[C@@H]3[C@H](O)C[C@@H]4C[C@H](O)CC[C@]4(C)[C@H]3CC[C@]12C` the recovery was 110% (HEK293T; LC-MS; serum-free conditioned medium; 100 µM, overnight; relative to: non-conditioned medium).
Under “relative mitotic index”, `CCCC(CCC)NC(=O)c1ccc2c(c1)OCO2` is recorded as 122% (CHO-WBL; 0.062 mg/mL, 3 h, with rat liver S9).
For `SC[C@H]1SC[C@@H]2Sc3ccccc3N21`, cytotoxicity read “not toxic” (L929; MTT; 100 µg/mL, 24 h).
With `Cc1ccc(S(=O)(=O)c2nc(S(=O)(=O)NCc3ccccc3)sc2Cl)cc1` the CC90 was over 100 µM (HFF; 7 days).
`COC[C@@H](CC(C)C)NC(=O)c1ccc(C)c(C)c1` has a mitotic index of 10.8 (primary human lymphocytes; 225 µg/mL, 4 h).
`C[C@H](Cn1cnc2c(N)ncnc21)OCP(=O)(O)O`: “slope of fold mRNA vs concentration” -0.00225 (cryopreserved human hepatocytes, donor LLT; CYP3A4 induction, measured: CYP3A4 mRNA; concentration not given, 48 h).
For `COc1cc(/C=C/C=C2\SC(=S)NC2=O)cc(OC)c1O`, the viability was 1.01 and 1.02 (HEK-293T; CellTiter-Glo; 1.25 µM, 24 h, unit not given; relative to: untreated).
For `CC(=O)O[C@H]1C(=O)[C@@]2(C)[C@H]([C@H](OC(=O)c3ccccc3)[C@]3(O)C[C@H](OC(=O)[C@H](O)[C@@H](NC(=O)c4ccccc4)c4ccccc4)C(C)=C1C3(C)C)[C@]1(OC(C)=O)CO[C@@H]1C[C@@H]2O`, the IC50 was 0.151 ± 0.00263 µM (HEK293 transfected with MRP7; cell growth; 72 h).

Excerpt of the above:
For `COc1cc(C2Oc3cc([C@H]4Oc5cc(O)cc(O)c5C(=O)[C@@H]4O)ccc3OC2CO)ccc1O` (some centres unmarked), the efflux ratio was 0.9 ± 0.08 (Caco-2 monolayers; 100 µg/mL, 2 h; relative to: Papp(BL-AP) over Papp(AP-BL)).
`Cc1cc(Nc2ncnc3ccc(NC4=NC(C)(C)CO4)cc23)ccc1Oc1ccn2ncnc2c1` has an efflux ratio of 2.5 ± 0.52 (MDCK-II cells, parental; bidirectional transwell permeability; 1 µM, 1 h, pH 7.4).
`Nc1ccn([C@H]2CC[C@@H](CO)O2)c(=O)n1` has a CC50 of over 10 µM (PBMC).
`COc1cccc(-c2n[nH]c(SCc3ccccn3)n2)c1OC`: “structural aberrations per 100 cells” 1 (primary human lymphocytes; 0.063 mg/mL, 20 h).
The amount transported of `C[C@@H]1O[C@@H](OC[C@H]2O[C@@H](Oc3c(-c4ccc(OCCO)c(OCCO)c4)oc4cc(OCCO)cc(O)c4c3=O)[C@H](O)[C@@H](O)[C@@H]2O)[C@H](O)[C@H](O)[C@H]1O` is reported as 4.87 ± 0.7% (Caco-2 monolayers; apical to basolateral transport; 100 µg/mL, 2 h).
